Experimental data of several laboratories.
Every numbered part comes from another study and shows a few of its results, in no order. “And” joins repeats or separate records; there may be more than shown.

Study 1
SMILES: CC(C)C[C@@H]1NC(=O)[C@@H](N(C)C(=O)[C@@H](NC(=O)[C@@H]2C[C@@H](F)CN2C(=O)C2(C(F)(F)F)CC(F)(F)C2)C2CC2)CCCCCCCN(C)C(=O)[C@H](Cc2cc(Cl)cnc2OC2CC2)N(C)C1=O
Host: mouse, sample A SCLC PDX
Route: oral
Dose: 100 mg/kg three times daily
Measurement: tumour volume
setting = day 11; result = 131 mm3 and 179 mm3 and 160 mm3 and 263 mm3
setting = day 14; result = 226 mm3 and 290 mm3 and 136 mm3 and 183 mm3
setting = day 4; result = 138 mm3 and 150 mm3 and 134 mm3 and 103 mm3 and 124 mm3
setting = day 28; result = 235 mm3 and 261 mm3 and 217 mm3 and 312 mm3 and 480 mm3

Study 2
SMILES: CCN(CC)CC(=O)N1CCN(c2nc(NCc3nc4cc(Cl)c(Cl)cc4[nH]3)c3ncn(CC)c3n2)CC1
Cell line: MDA-MB-231
Technique: qRT-PCR
Time: 6 h
Notes: unit not given
Measurement: mRNA level
assay = item: SMARCC2; setting = 50 nM; how to read = reference: untreated; result = 0.62
assay = item: ATR; setting = 0.05 µM; how to read = reference: DMSO; result = 0.377 and 0.418 and 0.423
assay = item: FANCI; setting = 50 nM; how to read = reference: untreated; result = 0.435
assay = item: FANCI; setting = 0.05 µM; how to read = reference: DMSO; result = 0.402 and 0.455 and 0.449
assay = item: ATM; setting = 50 nM; how to read = reference: untreated; result = 0.404
assay = item: BRCA1; setting = 0.05 µM; how to read = reference: DMSO; result = 0.388 and 0.126 and 0.383

Study 3
SMILES: CCN1/C(=C/C=C2\CCCC(/C=C/C3=[N+](CC)c4ccccc4C3(C)C)=C2NCCCCCCCCN2CCC(Nc3nc4ccccc4n3Cc3ccc(F)cc3)CC2)C(C)(C)c2ccccc21
Cell line: U-87 MG
Concentration: concentration not given
Reference: DMSO
Measurement: log2 fold change
assay = item: IFITM10 mRNA; result = -1.12
assay = item: RPAIN mRNA; result = 0.819
assay = item: AURKA mRNA; result = -1.81
assay = item: IL16 mRNA; result = -1.66
assay = item: IER5L mRNA; result = -1.79
assay = item: CPEB4 mRNA; result = 1.47
assay = item: TOP2A mRNA; result = -2.12
assay = item: HMGB3 mRNA; result = -1.25
assay = item: OIP5 mRNA; result = -1.78
assay = item: SUV39H1 mRNA; result = -2.14
assay = item: RNASEH2A mRNA; result = -1.58
assay = item: TREM1 mRNA; result = 2.9
assay = item: RPS6KA1 mRNA; result = -0.824
assay = item: C1QL1 mRNA; result = -1.05
assay = item: ARMCX3 mRNA; result = 1.03
assay = item: LRRC49 mRNA; result = 2.94

Study 4
Structure (SMILES): COCC1CC2C(CCC3C(O)CCC32)c2ccc(O)cc21 (stereo not drawn)
Measurement: mRNA level ratio
cell line = PANC-1; assay = microarray, item: CCL11; setting = 100 µM; how to read = reference: untreated; result = 345
cell line = PANC-1; assay = microarray, item: RFC3; setting = 25 µM; how to read = reference: untreated; result = 1.7
cell line = PANC-1; assay = DNA microarray, item: ACTB; setting = 100 µM; how to read = reference: untreated cells; result = 0.512 and 0.515 and 0.513 and 0.506
cell line = PANC-1; assay = DNA microarray, item: C6; setting = 100 µM; how to read = reference: untreated cells; result = 97.3
cell line = PANC-1; assay = DNA microarray, item: GAPDH; setting = 25 µM; how to read = reference: untreated cells; result = 0.634 and 0.62 and 0.604 and 0.611 and 0.622
cell line = SK-OV-3; assay = DNA microarray, item: KIF20A; setting = 100 µM; how to read = reference: untreated cells; result = 0.98 and 0.991 and 1.05 and 0.951 and 0.931
cell line = PANC-1; assay = microarray, item: MCM6; setting = 100 µM; how to read = reference: untreated; result = 1.15
cell line = PANC-1; assay = DNA microarray, item: KIF20A; setting = 25 µM; how to read = reference: untreated cells; result = 1.45 and 1.49 and 1.48 and 1.52 and 1.5
cell line = SK-OV-3; assay = DNA microarray, item: MCM7; setting = 100 µM; how to read = reference: untreated cells; result = 0.774
cell line = A549; assay = microarray, item: RFC3; setting = 25 µM; how to read = reference: untreated; result = 1.3

Study 5
Organism: Arabidopsis thaliana
Strain: Col-0
Concentration: 25 µg/mL
Notes: seed germination
Measurement: root length
SMILES = O=C(O)C1(O)Oc2cc(Br)ccc2N(Cc2ccccc2)C1=O (stereo not drawn); result = 0.761 cm
SMILES = O=C(O)C1(O)Oc2cc(F)ccc2N(Cc2ccccc2)C1=O (stereo not drawn); result = 0.139 cm
SMILES = CC(C)=CCN1C(=O)C(O)(C(=O)O)Oc2cc(F)ccc21 (stereo not drawn); result = 1.07 cm
SMILES = O=C(O)C1(O)Oc2ccccc2N(Cc2ccccc2)C1=O (stereo not drawn); result = 1.11 cm
SMILES = CC(C)(C)c1ccc(Oc2ccc3c(c2)OC(O)(C(=O)O)C(=O)N3Cc2ccccc2)cc1 (stereo not drawn); result = 0.58 cm
SMILES = CCN1C(=O)C(O)(C(=O)O)Oc2cc(F)ccc21 (stereo not drawn); result = 0.756 cm
SMILES = O=C(O)C1Oc2cc(F)ccc2N(Cc2ccccc2)C1=O (stereo not drawn); result = 0.949 cm
SMILES = O=C(O)C1(O)Oc2cc(Cl)ccc2N(Cc2ccccc2)C1=O (stereo not drawn); result = 1.08 cm
SMILES = Cc1ccc2c(c1)OC(O)(C(=O)O)C(=O)N2Cc1ccccc1 (stereo not drawn); result = 1.09 cm

Study 6
Organism: Leishmania donovani
Cell line: THP-1
Strain: DD8
Matrix: intracellular amastigotes
Reference: THP-1 cytotoxicity over amastigote activity
Measurement: selectivity index
SMILES = CCOc1ccc(Nc2c3c(nc4ccc(Cl)cc24)CCC3)cc1; result = 5.02
SMILES = COC(=O)c1ccc(Nc2c3c(nc4ccccc24)CCC3)cc1; result = 2.02
SMILES = Cc1ccc2nc3c(c(Nc4ccc(Br)cc4)c2c1)CCC3; result = 2.28
SMILES = Cc1ccc2nc3c(c(Nc4ccc(O)cc4)c2c1)CCC3; result = 2.91
SMILES = CC(=O)c1cccc(Nc2c3c(nc4ccccc24)CCC3)c1; result = 2.34

Study 7
Structure (SMILES): Cc1ccc(O)c(C)c1-c1cnc2[nH]c(-c3cnc(N4CCC5(CC4)CC(N4CCN(c6ccc(N[C@H]7CCC(=O)NC7=O)cc6F)CC4)CO5)nc3)cc2c1C#N (single isomer, unassigned)
Matrix: plasma
Route: intravenous
Dose: 1 mg/kg
Measurement: Vd
system = male beagle dog; result = 3.3 L/kg
system = male Sprague-Dawley rat; result = 3.7 L/kg
system = male cynomolgus monkey; result = 5.1 L/kg

Study 8
Target: Amine oxidase [copper-containing] 3 (AOC3, Homo sapiens, UniProt Q16853)
Sequence of UniProt Q16853 (whole entry, looked up): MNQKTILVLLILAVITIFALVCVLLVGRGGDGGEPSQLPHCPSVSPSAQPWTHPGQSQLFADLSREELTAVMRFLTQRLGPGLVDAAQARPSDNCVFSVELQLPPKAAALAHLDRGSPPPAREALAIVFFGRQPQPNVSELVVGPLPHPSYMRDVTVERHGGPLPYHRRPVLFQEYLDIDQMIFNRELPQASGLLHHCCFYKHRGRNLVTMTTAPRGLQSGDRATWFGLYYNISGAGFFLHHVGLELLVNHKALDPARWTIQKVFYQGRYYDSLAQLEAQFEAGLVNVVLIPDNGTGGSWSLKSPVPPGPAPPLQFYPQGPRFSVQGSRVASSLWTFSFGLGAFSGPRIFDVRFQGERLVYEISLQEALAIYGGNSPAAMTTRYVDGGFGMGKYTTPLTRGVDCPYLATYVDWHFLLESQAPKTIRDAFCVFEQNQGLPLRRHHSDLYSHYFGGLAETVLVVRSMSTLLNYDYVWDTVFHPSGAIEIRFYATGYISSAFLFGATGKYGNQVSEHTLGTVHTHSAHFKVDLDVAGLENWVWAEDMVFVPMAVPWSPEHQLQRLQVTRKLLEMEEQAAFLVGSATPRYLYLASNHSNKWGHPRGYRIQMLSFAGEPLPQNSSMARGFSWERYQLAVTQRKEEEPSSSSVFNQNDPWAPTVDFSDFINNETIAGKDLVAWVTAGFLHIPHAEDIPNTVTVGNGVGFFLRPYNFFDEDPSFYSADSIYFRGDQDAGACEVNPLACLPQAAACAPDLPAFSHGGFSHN
Observed: enzyme activity
Action: inhibitor
Technique: fluorescence
Measurement: IC50
Compound = Cc1cc2c([nH]1)c(=O)[nH]c(=S)n2Cc1cccc(OC/C(=C/F)CN)c1; result = 27 nM
Compound = Cc1c[nH]c2c(=O)[nH]c(=S)n(Cc3cc(F)cc(OC/C(=C/F)CN)c3)c12; result = 35 nM
Compound = NC/C(=C\F)COc1cccc(Cn2c(=S)[nH]c(=O)c3[nH]ccc32)c1; result = 10 nM
Compound = NC/C(=C\F)COc1ccc(C(F)(F)F)c(Cn2c(=S)[nH]c(=O)c3[nH]cnc32)c1; result = 1320 nM

Study 9
SMILES: C[C@@H]1CN(c2ccc(-c3cc(C(=O)NCCOCCOCCOCCOCCNC(=O)/C=C/c4[nH]cc(C(=O)N[C@@H](CC(N)=O)c5ccc(F)c(Cl)c5)c4-c4ccc(Cl)cc4F)ccc3F)cc2NC(=O)c2c[nH]c(=O)cc2C(F)(F)F)C[C@H](C)N1C
Observed: thermal unfolding
Technique: differential scanning fluorimetry
Concentration: 5.5 µM
Reading: higher = more unfolded
Measurement: SYPRO Orange fluorescence
DCAF1: DDB1- and CUL4-associated factor 1 (DCAF1, Homo sapiens, UniProt Q9Y4B6)
Sequence of UniProt Q9Y4B6 (whole entry, looked up): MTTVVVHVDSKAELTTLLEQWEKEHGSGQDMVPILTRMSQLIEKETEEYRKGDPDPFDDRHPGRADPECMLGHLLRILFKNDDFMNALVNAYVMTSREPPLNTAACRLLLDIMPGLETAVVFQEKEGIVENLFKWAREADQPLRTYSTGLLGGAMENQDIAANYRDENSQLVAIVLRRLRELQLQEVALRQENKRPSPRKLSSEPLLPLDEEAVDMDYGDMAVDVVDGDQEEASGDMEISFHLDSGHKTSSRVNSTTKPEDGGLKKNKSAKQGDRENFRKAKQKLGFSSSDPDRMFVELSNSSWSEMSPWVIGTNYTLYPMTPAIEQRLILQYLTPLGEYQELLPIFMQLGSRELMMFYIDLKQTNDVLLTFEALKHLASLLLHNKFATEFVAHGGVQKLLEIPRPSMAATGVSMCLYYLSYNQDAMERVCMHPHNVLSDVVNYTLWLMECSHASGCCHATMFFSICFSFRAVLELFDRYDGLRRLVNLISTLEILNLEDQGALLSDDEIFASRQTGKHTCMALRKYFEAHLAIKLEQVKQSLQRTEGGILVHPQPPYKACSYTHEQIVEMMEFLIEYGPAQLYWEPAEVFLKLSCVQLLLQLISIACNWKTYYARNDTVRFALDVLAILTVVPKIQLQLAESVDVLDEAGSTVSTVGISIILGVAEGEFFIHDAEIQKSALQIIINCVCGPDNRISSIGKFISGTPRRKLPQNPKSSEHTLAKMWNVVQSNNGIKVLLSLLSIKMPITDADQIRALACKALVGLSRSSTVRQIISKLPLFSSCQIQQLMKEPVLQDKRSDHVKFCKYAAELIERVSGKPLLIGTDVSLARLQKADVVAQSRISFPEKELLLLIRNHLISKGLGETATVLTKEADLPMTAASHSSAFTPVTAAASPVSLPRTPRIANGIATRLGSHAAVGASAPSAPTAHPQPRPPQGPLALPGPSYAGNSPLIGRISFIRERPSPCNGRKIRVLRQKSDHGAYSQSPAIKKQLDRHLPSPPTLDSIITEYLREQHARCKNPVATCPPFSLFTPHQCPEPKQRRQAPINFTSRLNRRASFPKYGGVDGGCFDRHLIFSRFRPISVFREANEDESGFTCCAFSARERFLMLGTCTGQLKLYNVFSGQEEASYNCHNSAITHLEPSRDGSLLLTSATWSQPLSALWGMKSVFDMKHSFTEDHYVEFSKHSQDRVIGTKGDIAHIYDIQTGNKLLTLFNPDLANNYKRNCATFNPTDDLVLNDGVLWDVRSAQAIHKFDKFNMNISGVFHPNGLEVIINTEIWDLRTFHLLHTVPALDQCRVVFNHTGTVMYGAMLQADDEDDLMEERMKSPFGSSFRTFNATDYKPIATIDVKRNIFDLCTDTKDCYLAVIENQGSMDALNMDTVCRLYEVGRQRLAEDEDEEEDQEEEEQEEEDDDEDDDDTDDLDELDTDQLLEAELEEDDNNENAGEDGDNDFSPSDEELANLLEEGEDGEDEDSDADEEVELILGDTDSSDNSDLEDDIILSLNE
WDR5: WD repeat-containing protein 5 (WDR5, Homo sapiens, UniProt P61964)
target = DCAF1; setting = 89.01 °C; result = 36100 a.u.
target = WDR5; setting = 25.6 °C; result = 12900 a.u.
target = WDR5; setting = 87.81 °C; result = 53400 a.u.
target = WDR5; setting = 51.8 °C; result = 16800 a.u.
target = WDR5; setting = 83.01 °C; result = 48600 a.u.
target = WDR5; setting = 27.8 °C; result = 12900 a.u.
target = DCAF1; setting = 38.4 °C; result = 11100 a.u.
target = WDR5; setting = 65.81 °C; result = 14100 a.u.
target = WDR5; setting = 68.01 °C; result = 14400 a.u.
target = WDR5; setting = 25.2 °C; result = 12800 a.u.
target = WDR5; setting = 82.41 °C; result = 47100 a.u.

Mixed results
Structure (SMILES) = CCN1CCN(Cc2ccc(COc3c(-c4c(C)c(F)cc5[nH]ncc45)c(C4CC4)cc4c(N5C[C@@H]6C[C@H]5CN6)nc(OC5CCOCC5)nc34)cc2)C(=O)C1; target or system = A-375 (KRAS wild type); assay = in-cell ELISA, item: phospho-ERK1/2; setting = 100 nM, 2 h; measurement = ERK1/2 phosphorylation; result = 110% and 135% and 133% and 125%
Structure (SMILES) = Cc1nc(C)c(C=[N+]([O-])C(C)(C)C)nc1C; assay = Western blot; system = MPTP mouse model; setting = 30 mg/kg; measurement = pSer9-GSK3β/total GSK3β; result = 159 and 276 and 181 and 190
Structure (SMILES) = Cc1ncsc1-c1ccc(C(CO)NC(=O)C2CC(O)CN2C(=O)C(NC(=O)c2ccc(COc3c(-c4c(C)c(F)cc5[nH]ncc45)c(C4CC4)cc4c(N5CC6CC5CN6)nc(OC5CCOCC5)nc34)cc2)C(C)C)cc1 (stereo not drawn); target or system = AsPC-1; assay = in-cell ELISA; setting = 300 pM, per-experiment values; measurement = phospho-ERK1/2 level; result = 98.9% and 94.2% and 99.6%
Structure (SMILES) = O=C(Nc1ccccc1)c1cccc(Oc2ccc3nccn3n2)c1; target or system = HeLa transfected with DDR1b; assay = receptor autophosphorylation, inhibitor, western blot; setting = concentration not given, 24 h, together with: collagen I; measurement = DDR1 autophosphorylation; result = no inhibition
Structure (SMILES) = Cc1ncsc1-c1ccc(C2(NC(=O)C3CC(O)CN3C(=O)C(NC(=O)c3ccc(COc4c(-c5c(C)c(F)cc6[nH]ncc56)c(C5CC5)cc5c(N6CC7CC6CN7)nc(OC6CCOCC6)nc45)cc3)C(C)(C)C)CC2)cc1 (stereo not drawn); target or system = GTPase KRas (KRAS, Homo sapiens, UniProt P01116, G12D); assay = degrader, In-Cell ELISA; system = AsPC-1 (KRAS G12D); setting = 24 h; measurement = DC50; result = 1080 nM and 318 nM and 925 nM
Structure (SMILES) = CC(C)NC(=O)N1CCC(NC2=Nc3cc(F)ccc3N(CC(F)F)c3ccc(Cl)cc32)C1 (stereo in doubt); target or system = sample I colorectal tumour organoid; setting = 0.1 µM; how to read = reference: DMSO; measurement = viability; result = 109%
Structure (SMILES) = Cc1ncsc1-c1ccc(C(CO)NC(=O)C2CC(O)CN2C(=O)C(C(C)C)n2cc(-c3ccc(COc4c(-c5c(C)c(F)cc6[nH]ncc56)c(C5CC5)cc5c(N6CC7CC6CN7)nc(OC6CCOCC6)nc45)cc3)nn2)cc1 (stereo not drawn); target or system = GTPase KRas, GDP-bound (KRAS, Homo sapiens, UniProt P01116, G12D); assay = binder, single-cycle SPR; setting = binary, without VCB; measurement = dissociation rate constant (kd); result = 0.00312 s⁻¹ and 0.00361 s⁻¹ and 0.0036 s⁻¹

Some of these lines once more (study 9):
target = WDR5; setting = 51.8 °C; result = 16800 a.u.
target = WDR5; setting = 83.01 °C; result = 48600 a.u.
target = WDR5; setting = 27.8 °C; result = 12900 a.u.
target = DCAF1; setting = 38.4 °C; result = 11100 a.u.
target = WDR5; setting = 65.81 °C; result = 14100 a.u.
target = WDR5; setting = 68.01 °C; result = 14400 a.u.
target = WDR5; setting = 25.2 °C; result = 12800 a.u.
